Measurements pooled from the literature.
Every numbered part comes from another study and shows a few of its results, in no order.

Set 1
Target: Ras GTPase-activating protein-binding protein 1, C-terminal RGG region (G3BP1, Homo sapiens, UniProt Q13283)
Sequence of UniProt Q13283 (whole entry, looked up): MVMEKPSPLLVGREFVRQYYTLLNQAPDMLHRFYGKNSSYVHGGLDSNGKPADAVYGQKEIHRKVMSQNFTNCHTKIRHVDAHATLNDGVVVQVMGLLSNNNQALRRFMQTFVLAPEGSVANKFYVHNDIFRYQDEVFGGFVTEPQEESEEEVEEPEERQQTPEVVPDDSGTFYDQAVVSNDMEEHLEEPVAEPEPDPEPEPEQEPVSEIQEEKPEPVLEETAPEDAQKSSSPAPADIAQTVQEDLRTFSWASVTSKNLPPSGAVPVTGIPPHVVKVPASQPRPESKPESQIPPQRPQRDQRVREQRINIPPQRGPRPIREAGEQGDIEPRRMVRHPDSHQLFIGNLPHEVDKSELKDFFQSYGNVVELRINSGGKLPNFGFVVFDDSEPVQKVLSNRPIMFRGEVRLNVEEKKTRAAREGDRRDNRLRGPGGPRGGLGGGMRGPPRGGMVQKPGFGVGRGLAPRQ
Method: RNA Bind-n-Seq
Molecule type: RNA
Medium: in vitro
Tested at: 1 µM
Setting: whole 134-nt RNA, ends assumed
Together with: 150 mM KCl
Relative to: input library
Reading: higher = stronger binding
With `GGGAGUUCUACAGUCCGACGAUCAAGUCCUGUGCUACACAUCGUAUGUACCGAAUCGGGGAAAAGGGAAAAGGAAAAGGAAAGUAUUAUGUUACGCCGUUCGGAUCUGCACUUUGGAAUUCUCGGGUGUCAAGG` the log2 enrichment was -1.78.
The log2 enrichment of `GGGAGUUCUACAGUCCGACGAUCUAACUUUAGAGGAGGAUCUGAUGGAUAUGGCAGUGGACGUGGAUUUGGGGAUGGCUAUAAUGGGUAUGGAGGAGGACCUGGAGGUGUCAAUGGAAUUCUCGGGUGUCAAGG` is reported as -0.539.
The log2 enrichment of `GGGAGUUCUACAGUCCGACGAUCCCUCAAGUCCUGUGCUACACAUCGUAUGUACCGAAUCGGGGAGGAGGGAGGGGAAAGUAUUAUGUUACGCCGUUCGGAUCUGCACUUCCAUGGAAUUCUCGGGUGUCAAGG` is reported as 0.765.
With `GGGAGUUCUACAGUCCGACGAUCUGGGAGGUGGAUUUUGUUUAUUUUUUUAGCUCAUUUCCAGGGGUGGGAAUUUUUUUUUAAUAUGUGUCAUGAAUAAAGUUGUUUUUUAAAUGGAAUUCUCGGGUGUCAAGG` the log2 enrichment was 3.47.
`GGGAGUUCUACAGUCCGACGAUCGUCCUGUGCUACACAUCGUAUGUACCGAAUCAAACCCCCCCAAACCCCCAAAUUUAAAAAAGUAUUAUGUUACGCCGUUCGGAUCUGCACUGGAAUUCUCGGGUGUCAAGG` gave a log2 enrichment of -0.726.
For `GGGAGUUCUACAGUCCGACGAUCAGUCCUGUGCUACACAUCGUAUGUACCGAAUCGGGAAAAAGGGUUUUUGGGUUUGGGAAAGUAUUAUGUUACGCCGUUCGGAUCUGCACUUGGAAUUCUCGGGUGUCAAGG`, the log2 enrichment was 0.191.
`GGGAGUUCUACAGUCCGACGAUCUGGGAGGUGGAUUUUGUUUAUUUUUUUAGCUCAUUUCCAGGGGUGGGAAUUUUUUUUUAAUAUGUGUCAUGAAUAAAGUUGUUUUUCAAAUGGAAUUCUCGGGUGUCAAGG` gave a log2 enrichment of 4.4.
For `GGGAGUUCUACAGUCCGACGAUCGUAGCUGCUCCAGUGGGCCCAGUGGGCCCCACUCCUACAGUUUUGCCCAUGGGAGCCCCUGUUCCCCGGCCUCGUGGUCCCCCACCGCCCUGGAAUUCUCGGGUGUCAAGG`, the log2 enrichment was 0.36.
`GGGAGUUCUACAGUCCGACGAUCUCCUUUGUGUUUACAAAAGCACUGACCCUUUACCUUUUCUUUAGCAAGAAGAAUGGAAUGAACAUAAUGCCAAAAUAAUUAAAUAUAUAAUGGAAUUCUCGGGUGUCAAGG` gave a log2 enrichment of -0.39.
The log2 enrichment of `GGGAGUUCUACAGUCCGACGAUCCGGCCCUGGUGGCAUGCGGGGAGGAAGAGGUGGCCUCAUGGAUCGUGGUGGUCCCGGUGGAAUGUUCAGAGGUGGCCGUGGUGGAGACAGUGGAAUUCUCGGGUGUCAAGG` is reported as 2.22.

Set 2
Target: RING finger protein unkempt homolog, zinc fingers 1-6, GST-SBP tag (UNK, Homo sapiens, UniProt Q9C0B0, residues 30-357)
Method: RNA Bind-n-Seq
Molecule type: RNA
Medium: in vitro
Tested at: not given
Setting: RNA with constant flanks, human and mouse sites, ends assumed
Relative to: input RNA pool
Reading: higher = stronger binding
Residues (chain): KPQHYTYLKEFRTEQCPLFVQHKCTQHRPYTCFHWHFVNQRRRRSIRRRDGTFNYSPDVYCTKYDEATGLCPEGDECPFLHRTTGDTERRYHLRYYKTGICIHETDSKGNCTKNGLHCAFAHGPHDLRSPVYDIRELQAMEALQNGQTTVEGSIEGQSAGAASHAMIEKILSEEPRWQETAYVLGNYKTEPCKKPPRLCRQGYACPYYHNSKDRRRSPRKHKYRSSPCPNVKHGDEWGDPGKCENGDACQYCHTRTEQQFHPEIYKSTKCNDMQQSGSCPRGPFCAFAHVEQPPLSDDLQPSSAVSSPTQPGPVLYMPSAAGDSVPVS
The bound/input enrichment of `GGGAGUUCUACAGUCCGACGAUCGUGUGUACAUUGUCCAAAAUGCUGGAGAUUCUCGAGCAGCAGAAAAAAGUUGAUGCUGAGACAGUUGGGAGAGUGAAGAGGUUUAUUCAGGAGAAUGUCUUUGUGGCAGCGAAUCAUAAUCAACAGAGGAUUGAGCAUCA` is reported as 0.227 ratio.
With `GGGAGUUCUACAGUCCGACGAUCGAAGAAACCUUAUCCAGCCGAAGAAGGGAACUAAUUCAGAAGUUGAAGUCUUUCAUCAGCUUCUAUAGUGCUUUGCCUGGCUACAUCUGCAGCCAUAGCCCUGUGGCGGAAAACGACACCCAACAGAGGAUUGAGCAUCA` the bound/input enrichment was 0.253 ratio.
`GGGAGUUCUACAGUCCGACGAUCAAGCCUUAAGCACAAUUAAUUAAAAGUGAAACGUAAUUGUACAAGCAGUUAAUCACCCACCAUAGGGCAUGAUUAACAAAGCAACCUUUCCCUUCCCCCGAGUGAUUUUGCGAAACCCCCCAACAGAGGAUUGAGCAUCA` has a bound/input enrichment of 0.452 ratio.
For `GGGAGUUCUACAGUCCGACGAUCUCAGAAGAGGUGCUGGGUCACUUUCCGUAUCCUGAUCCUUCCCAGUGGACAGAUGAAGAAUUAGGUAUCCCUCCUGAUGAUGAAGACUGAAGGUGUAGACUCAGCCUCACUCUGUACAAGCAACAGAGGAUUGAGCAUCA`, the bound/input enrichment was 0.132 ratio.
The bound/input enrichment of `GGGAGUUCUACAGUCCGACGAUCCCUCCUUCCCCCCACCCAAUCCUUUUUUUUUUCUUUUUUGCUUUUCUUUUCUUUUUUUUUAGUUUUUAUUUACUUUACCUAGUAUGCCUUUUUUUAGUUGCUUCUCAAGUCAGAAAACUUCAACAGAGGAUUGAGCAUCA` is reported as 94.5 ratio.
`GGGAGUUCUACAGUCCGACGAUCGUAUUUAAUGUUGAAGUUGUUGCUGUUUCAUCCAUUCAUACACAAGACCCUUAUCUAGACAAAUUCUUUGCUCUUGUCAAUGCUCUGGAUGAACACAUGUUCCCGGUCCGAAUUGGGGACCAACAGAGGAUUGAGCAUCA` has a bound/input enrichment of 2.46 ratio.
The bound/input enrichment of `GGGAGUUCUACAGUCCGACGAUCUCCGUCCGUCGGCUUCUCGUCUUGCUCUCUCUGGUCCCUCCGGAGGAGGCCGCCGCGCGUCUCCCGGGGAAGCAUGGCGAUGAAAGCGGUGUGCGUGCUGAAGGGCGACGGUCCGGUGCACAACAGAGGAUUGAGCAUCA` is reported as 0.0714 ratio.
`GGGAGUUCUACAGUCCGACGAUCAGCCACAAAAUAUUUAAUGUGUUGUGCCUUCAUGAUGUAACAGAACAUUCUCCAGGUAGGUAGUUGGGGAAAAUAAAGGGAUAAAUCUCUAAUUAUUGCUGUUUAACUGUUUGUUAUCAUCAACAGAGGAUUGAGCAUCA` has a bound/input enrichment of 0.418 ratio.
`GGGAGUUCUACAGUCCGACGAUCCUGCUGGCUUUGUAUCAUCUUUAUGUUUAAAUGCAAAGGAAAUUAAAAAUGUCUGGAAAUGUUUUUGACUAAGUAAUGCAGCCUAGAAGCAAUGGUUCUCUUCAACCCUUCAGAUGUCUACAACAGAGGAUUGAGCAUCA` gave a bound/input enrichment of 0.202 ratio.
For `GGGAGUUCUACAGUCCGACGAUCUACCACGAGGGGGGACGCGUCUGGGUUGGCAGACCUUUUGGAUGUAGCCUUGUGGGAACAUUUAGACCCUUUCCUCUGGAAGAGCCACCAUGAAUUCGGUAGCCGGAAAUAAAGAGAGGCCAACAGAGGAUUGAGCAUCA`, the bound/input enrichment was 0.343 ratio.
For `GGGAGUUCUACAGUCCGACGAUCCAGAAUAACUCUUCACAACCUUCAAAGCAGAAAUAUGUAUGUCUUGCUGUGGAAGACUGGGACUUGUUAAAUUCCUAUUGAUUAGUAGAUACAAGUUGACCUUUCUCUGGCCCCCAGCUCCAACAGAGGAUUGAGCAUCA`, the bound/input enrichment was 4.3 ratio.

Set 3
Target: RNA binding protein fox-1 homolog 2, RRM domain, GST-SBP tag (RBFOX2, Homo sapiens, UniProt O43251-10, residues 100-194)
Method: RNA Bind-n-Seq
Molecule type: RNA
Medium: in vitro
Tested at: 365 nM
Setting: natural RNA segment, single round, ends assumed
Relative to: no-protein control
Reading: higher = stronger binding
Construct (chain): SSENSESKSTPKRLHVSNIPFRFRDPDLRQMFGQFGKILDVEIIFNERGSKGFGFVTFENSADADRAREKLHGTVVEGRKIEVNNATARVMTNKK
For `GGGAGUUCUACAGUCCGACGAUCUGUGCAGUCUCACCAUUUGCAUCACUGAGGAUGAAACUGACUUUUGUCUUUUGGAGAAAAAAAACUGUACUGCUUGUUCAAGAGGGCUGUGAUUAAAAUCUUUAAGCAUUUGGAAUUCUCGGGUGCCAA`, “RBNS enrichment (R)” read 0.563.
Under “RBNS enrichment (R)”, `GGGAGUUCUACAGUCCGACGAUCUCCUUCGAUAAUAUGAAACAUUAAUUUACAAGGACCCGUUAGGGCUUCAAUGAUGCUGAGUCUGGAAAAGGGGAGGAGACCCUUGGGAGGACUCCAGGCAGCUGUGCUCCUGGAAUUCUCGGGUGCCAA` is recorded as 0.649.
Under “RBNS enrichment (R)”, `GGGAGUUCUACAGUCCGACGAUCUUCCCACUGCAGUGGACCUACUCGGCUUCCUCCCACUGCAAUCCAUUGCCUCUCAGCAUUCCGGCCUAAGUUGCGCCCUCCCAGUAUCAGCUCUGAAAGUCUAGGAAUAGUGGAAUUCUCGGGUGCCAA` is recorded as 0.521.
Under “RBNS enrichment (R)”, `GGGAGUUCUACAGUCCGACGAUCUGUGGAGAAAAGAUUUGACUGAUAGAUGUUGGGACUUAGGCAAAGCUUUUGAAAGGCCUCUAACCUAAACUCCCACCCAGCCUGUCAGGCCCGCUUUGAUAUUCAUUCAGUGGAAUUCUCGGGUGCCAA` is recorded as 0.238.
For `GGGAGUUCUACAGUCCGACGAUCCCUUUCAGCCUUGCUGACUUCUCCCUAUAAAAGUAAAGCCUUUUUCUGCCCCAGCUCUGAGACACUUGCAGAUCUUAAGGUCUGAGACUUGCUGAUUUUCUGGUUGGAGUUGGAAUUCUCGGGUGCCAA`, “RBNS enrichment (R)” read 0.344.
`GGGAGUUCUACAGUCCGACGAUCUCCUGUGACAACAGCCAGUUUAGAAAAACUCCCUGUACCCCAGAUCAGUGGAACUGCAACAUCUACUGGAUCAGCUCCAUCCUCAAGCACUUUGCCAGCAGCUUCUAGCCUGGAAUUCUCGGGUGCCAA` — result for “RBNS enrichment (R)”: 0.879.
For `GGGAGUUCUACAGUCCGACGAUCCCUCGCCUCUGUUUGUCUGGCUCUAGAUACCUAAUUCUCAAUCUUCCUCCGCUCACCCCAUUGCUUGUUAUCACUGGGGAUGCCUGGACUUGGUCAAGUGAGCAACUGAUUGGAAUUCUCGGGUGCCAA`, “RBNS enrichment (R)” read 3.26.
Under “RBNS enrichment (R)”, `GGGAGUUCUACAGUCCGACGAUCCUGGUGGAACCCUGCCCCUUACCAGCCUUGAUGGCAGCGGGAACCUGGUGCUGGGGGCAGCCGGUGCGGCCCCAGGGAGUCCCAGCUUAGUAACCUCGCCUCUCUUCUUGUGGAAUUCUCGGGUGCCAA` is recorded as 0.631.
Under “RBNS enrichment (R)”, `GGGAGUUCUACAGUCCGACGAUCAAAAAAAAAGAAAAGCCAAGCAAACCAAUGGUGAUCCUCUAUUUUGUGAUGAUGCUGUGACAAUAAGUUUGAACCUUUUUUUUUGAAACAGCAGUCCCAGUAUUCUCAGAUGGAAUUCUCGGGUGCCAA` is recorded as 0.347.

Other studies, line by line
`PhoQ, residues 284 288 289 292 302 303 ALSMDL` has a fold induction of 9.08 (PhoP, residues 12 14 15 18 19 TQAIL (Escherichia coli, UniProt P23836); Sort-seq, item: YFP reporter; E. coli; PhoQ-PhoP variant library, together with: 10 µM Mg2+; relative to: high Mg2+ state, higher = stronger signaling).

A few entries again (set 3):
Under “RBNS enrichment (R)”, `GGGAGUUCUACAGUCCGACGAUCUUCCCACUGCAGUGGACCUACUCGGCUUCCUCCCACUGCAAUCCAUUGCCUCUCAGCAUUCCGGCCUAAGUUGCGCCCUCCCAGUAUCAGCUCUGAAAGUCUAGGAAUAGUGGAAUUCUCGGGUGCCAA` is recorded as 0.521.
For `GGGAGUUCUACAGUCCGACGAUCCCUUUCAGCCUUGCUGACUUCUCCCUAUAAAAGUAAAGCCUUUUUCUGCCCCAGCUCUGAGACACUUGCAGAUCUUAAGGUCUGAGACUUGCUGAUUUUCUGGUUGGAGUUGGAAUUCUCGGGUGCCAA`, “RBNS enrichment (R)” read 0.344.
Under “RBNS enrichment (R)”, `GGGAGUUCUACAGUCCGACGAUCUCCUUCGAUAAUAUGAAACAUUAAUUUACAAGGACCCGUUAGGGCUUCAAUGAUGCUGAGUCUGGAAAAGGGGAGGAGACCCUUGGGAGGACUCCAGGCAGCUGUGCUCCUGGAAUUCUCGGGUGCCAA` is recorded as 0.649.
Under “RBNS enrichment (R)”, `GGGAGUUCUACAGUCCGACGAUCUGUGGAGAAAAGAUUUGACUGAUAGAUGUUGGGACUUAGGCAAAGCUUUUGAAAGGCCUCUAACCUAAACUCCCACCCAGCCUGUCAGGCCCGCUUUGAUAUUCAUUCAGUGGAAUUCUCGGGUGCCAA` is recorded as 0.238.
For `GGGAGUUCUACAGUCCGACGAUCCCUCGCCUCUGUUUGUCUGGCUCUAGAUACCUAAUUCUCAAUCUUCCUCCGCUCACCCCAUUGCUUGUUAUCACUGGGGAUGCCUGGACUUGGUCAAGUGAGCAACUGAUUGGAAUUCUCGGGUGCCAA`, “RBNS enrichment (R)” read 3.26.
